Measured values from different studies.
Numbered parts are unrelated; each lists some results of a single study. Changes are numbered by the printed parent chain.

Set 1
Target: CCNE1, cyclin fold, Cln2 fusion (human)
Method: yeast growth competition, sequencing
Medium: yeast
Notes: weak parent motif
Reference: not given
Direction: higher = stronger binding
Starting sequence: RB1 docking peptide (human); PKPLKKLRFDIEG
For `PKPLKPLRFDIEG [K6P]`, “normalised enrichment score” read 0.829.
`PKPLKKLRFPIEG [D10P]` — result for “normalised enrichment score”: 0.54.
For `PKPLKKLFFDIEG [R8F]`, “normalised enrichment score” read 0.622.
`PKPLKKLRFSIEG [D10S]`: “normalised enrichment score” -1.04.
For `PKPLKMLRFDIEG [K6M]`, “normalised enrichment score” read 0.0281.
`PTPLKKLRFDIEG [K2T]` — result for “normalised enrichment score”: -0.284.
For `PKHLKKLRFDIEG [P3H]`, “normalised enrichment score” read -0.535.

Set 2
Target: Ras GTPase-activating protein-binding protein 1, full length (G3BP1, Homo sapiens, UniProt Q13283)
Sequence of UniProt Q13283 (whole entry, looked up): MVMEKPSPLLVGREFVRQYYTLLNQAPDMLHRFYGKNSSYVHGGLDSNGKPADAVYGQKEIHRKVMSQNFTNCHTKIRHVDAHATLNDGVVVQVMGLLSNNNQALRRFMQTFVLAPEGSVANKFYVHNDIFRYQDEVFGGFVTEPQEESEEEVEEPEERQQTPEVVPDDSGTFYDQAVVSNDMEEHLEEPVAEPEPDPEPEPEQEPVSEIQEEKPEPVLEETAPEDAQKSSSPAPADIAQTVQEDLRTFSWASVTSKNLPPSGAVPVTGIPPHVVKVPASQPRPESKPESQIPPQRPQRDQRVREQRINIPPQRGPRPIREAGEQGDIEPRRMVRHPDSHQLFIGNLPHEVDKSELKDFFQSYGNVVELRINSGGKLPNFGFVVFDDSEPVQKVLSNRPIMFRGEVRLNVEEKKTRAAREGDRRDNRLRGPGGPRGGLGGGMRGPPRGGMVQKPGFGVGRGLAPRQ
Method: RNA Bind-n-Seq
Molecule type: RNA
Medium: in vitro
Tested at: 200 nM
Notes: whole 134-nt RNA, ends assumed
Added: 150 mM LiCl
Reference: input library
Direction: higher = stronger binding
Each molecule: 7-deaza-guanosine replaces G
All sequences stand within: GGGAGUUCUACAGUCCGACGAUC … UGGAAUUCUCGGGUGUCAAGG
The log2 enrichment of `AGUCCUGUGCUACACAUCGUAUGUACCGAAUCGGGCCCCCGGGGCCCCCGGCCCCCGGAAAGUAUUAUGUUACGCCGUUCGGAUCUGCAC` is reported as -1.4.
`UGGGAGGUGGAUUUUGUUUAUUUUUUUAUCUCAUUUCCAGGGGUGGGAAUUUUUUUUUAAUAUGUGUCAUGAAUAAAGUUGUUUUUGAAA` gave a log2 enrichment of -0.567.
`UGGAGAAGCGCUACCUGGCUGCUCAGCGUGAGGCAACAUCCAUCCAUGACCUCAAUGACAAGCUGGAGAAUGAGCUGGCCAACAAGGAGU` gave a log2 enrichment of -0.26.
The log2 enrichment of `CUGUGCUACACAUCGUAUGUACCGAAUCGGGGAAAAAAAGGGGAAAGGGGUUUUUUUGGGGAAAGUAUUAUGUUACGCCGUUCGGAUCUG` is reported as -0.23.
For `UCCUGUGCUACACAUCGUAUGUACCGAAUCGGGUUUUUGGGUUUUUGGGGUUUUUGGGGAAAGUAUUAUGUUACGCCGUUCGGAUCUGCA`, the log2 enrichment was -0.0608.
`UCCUGUGCUACACAUCGUAUGUACCGAAUCGGGAAAAAAAGGGUUUGGGUUUUUUUGGGAAAGUAUUAUGUUACGCCGUUCGGAUCUGCA` gave a log2 enrichment of -0.765.

Set 3
Target: TAR DNA-binding protein 43, full length, His tag (TARDBP, Homo sapiens, UniProt Q13148, residues 1-414)
Method: RNA Bind-n-Seq
Molecule type: RNA
Medium: in vitro
Tested at: 20 nM
Notes: 6-mer, flanks averaged, single round
Added: 150 mM LiCl
Reference: input library
Direction: higher = stronger binding
`UCGGGC`: “6-mer enrichment (R)” 1.
Under “6-mer enrichment (R)”, `UGUCCU` is recorded as 0.994.
Under “6-mer enrichment (R)”, `GUUUCG` is recorded as 1.06.
For `CGUAGA`, “6-mer enrichment (R)” read 0.924.
For `AAGUCA`, “6-mer enrichment (R)” read 0.81.
`GUCAAG` — result for “6-mer enrichment (R)”: 0.924.
Under “6-mer enrichment (R)”, `UCUUAA` is recorded as 0.898.
For `ACAGGG`, “6-mer enrichment (R)” read 1.

Single results of other studies
`PhoQ, residues 284 288 289 292 302 303 SCEHLI` gave a fold induction of 4.63 (PhoP, residues 12 14 15 18 19 AWHSL (Escherichia coli, UniProt P23836); Sort-seq, refers to: YFP reporter; E. coli; PhoQ-PhoP variant library, added: 10 µM Mg2+; reference: high Mg2+ state, higher = stronger signaling).

For quick reference, copied from above (set 3):
Under “6-mer enrichment (R)”, `UCUUAA` is recorded as 0.898.
